# Experimental data pooled from the literature.
# Each numbered part is a random draw from the data of one study; scales do not carry over between parts. Positions count from the first letter of the parent shown.

# Study 1
# Target: TAR DNA-binding protein 43, full length, His tag (TARDBP, Homo sapiens, UniProt Q13148, residues 1-414)
# Technique: RNA Bind-n-Seq
# Form: RNA
# Matrix: in vitro
# Concentration: 20 nM
# Notes: 6-mer, flanks averaged, single round
# Together with: 150 mM KCl
# Reference: input library
# Reading: higher = stronger binding
Oligonucleotide,6-mer enrichment (R)
CCUCUA,0.573
AGGAGG,4.1
UGAUCU,0.573
CAAGCU,0.623
GACGAA,0.942
AUCAAA,0.586
GCGUCC,0.85
AGCUUA,0.592

# Study 2
# Target: PABPC1L2, full length, GST fusion (mouse, UniProt A0ABA7IW68)
# Technique: RNAcompete
# Form: RNA
# Matrix: in vitro
# Concentration: 20 nM
# Notes: 7-mer, probes averaged, single round
# Reference: mean of 7-mers
# Reading: higher = stronger binding
# Residues (chain): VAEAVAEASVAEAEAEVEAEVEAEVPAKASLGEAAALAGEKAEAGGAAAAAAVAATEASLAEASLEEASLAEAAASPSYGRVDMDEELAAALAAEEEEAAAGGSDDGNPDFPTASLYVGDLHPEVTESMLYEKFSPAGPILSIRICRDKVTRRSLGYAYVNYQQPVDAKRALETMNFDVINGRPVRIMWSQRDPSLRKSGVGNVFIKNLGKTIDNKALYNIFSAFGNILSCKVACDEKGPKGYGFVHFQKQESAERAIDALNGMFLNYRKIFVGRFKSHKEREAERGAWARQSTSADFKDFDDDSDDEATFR
Oligonucleotide,7-mer Z-score
AUGGACA,0.046
CGAGCUU,-0.235
GUCAGUU,-0.313
CACUAAC,-0.246
CCCGCCG,-0.447
ACGUGGA,0.191
UCUCAUU,-0.409
CAUUACC,-0.28

# Study 3
# Target: Prothrombin, mature alpha-thrombin (F2, Homo sapiens, UniProt P00734)
# Technique: aptamer microarray, sandwich
# Form: DNA with 2'F-ANA
# Matrix: in vitro
# Concentration: 200 nM
# Notes: whole 15-mer aptamer, many near background
# Together with: Cy3 exosite-II aptamer, 400 nM
# Reading: higher = stronger binding
# Oligonucleotide: GGTTGGTGTGGTTGG
Modification,mean fluorescence intensity [a.u.]
2'F-ANA at 4 5 6 7 12,198
2'F-ANA at 2 4 5 7 8 10 13 14,91.9
2'F-ANA at 2 3 8 9 14,461
2'F-ANA at 1 13,156
2'F-ANA at 4 6 7 8 11 12 13,363
2'F-ANA at 5 8 11,68.3
2'F-ANA at 2 5 6 7 8 9 11,71.7
2'F-ANA at 1 4 5 6 7 9 12,96.9

# Single results of other studies
# Parent: viral docking peptide; KGVKRKLFAEDSS; partner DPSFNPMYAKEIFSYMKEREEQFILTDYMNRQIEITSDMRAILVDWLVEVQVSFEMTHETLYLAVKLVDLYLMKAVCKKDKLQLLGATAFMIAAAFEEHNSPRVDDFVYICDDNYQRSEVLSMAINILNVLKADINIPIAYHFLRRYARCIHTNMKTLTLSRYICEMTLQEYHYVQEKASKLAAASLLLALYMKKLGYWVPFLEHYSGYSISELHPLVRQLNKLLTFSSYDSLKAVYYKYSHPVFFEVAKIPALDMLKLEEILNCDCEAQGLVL
Change,target,test,test system,conditions,scale,measurement,value
A9E,"CCNB3, cyclin fold, Cln2 fusion (human)","yeast growth competition, sequencing",yeast,strong parent motif,"reference: not given, higher = stronger binding",normalised enrichment score,2.95

# For quick reference, copied from above (study 3):
Modification,mean fluorescence intensity [a.u.]
2'F-ANA at 1 13,156
2'F-ANA at 4 6 7 8 11 12 13,363
2'F-ANA at 5 8 11,68.3
